Experimental data collected from several papers.
Numbers after ± are the reported error.
Sequence of UniProt P0A725 (whole entry, looked up): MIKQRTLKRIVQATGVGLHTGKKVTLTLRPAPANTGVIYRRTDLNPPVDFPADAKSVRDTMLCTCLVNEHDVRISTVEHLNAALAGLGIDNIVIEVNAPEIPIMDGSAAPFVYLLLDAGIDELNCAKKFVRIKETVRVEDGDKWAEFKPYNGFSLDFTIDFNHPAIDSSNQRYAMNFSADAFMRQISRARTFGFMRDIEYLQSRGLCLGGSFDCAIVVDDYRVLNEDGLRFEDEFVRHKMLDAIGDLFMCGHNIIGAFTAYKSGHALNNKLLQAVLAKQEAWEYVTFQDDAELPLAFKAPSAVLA
Sequence of UniProt P9WGR1 (whole entry, looked up): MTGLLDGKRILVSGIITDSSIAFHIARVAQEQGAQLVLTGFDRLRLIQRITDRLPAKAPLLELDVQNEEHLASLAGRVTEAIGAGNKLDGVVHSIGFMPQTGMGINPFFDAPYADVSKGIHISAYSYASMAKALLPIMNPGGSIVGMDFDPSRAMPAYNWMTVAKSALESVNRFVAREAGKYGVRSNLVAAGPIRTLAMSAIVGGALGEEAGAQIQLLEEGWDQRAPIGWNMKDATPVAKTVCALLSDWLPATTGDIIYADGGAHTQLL
Sequence of UniProt P47746 (whole entry, looked up): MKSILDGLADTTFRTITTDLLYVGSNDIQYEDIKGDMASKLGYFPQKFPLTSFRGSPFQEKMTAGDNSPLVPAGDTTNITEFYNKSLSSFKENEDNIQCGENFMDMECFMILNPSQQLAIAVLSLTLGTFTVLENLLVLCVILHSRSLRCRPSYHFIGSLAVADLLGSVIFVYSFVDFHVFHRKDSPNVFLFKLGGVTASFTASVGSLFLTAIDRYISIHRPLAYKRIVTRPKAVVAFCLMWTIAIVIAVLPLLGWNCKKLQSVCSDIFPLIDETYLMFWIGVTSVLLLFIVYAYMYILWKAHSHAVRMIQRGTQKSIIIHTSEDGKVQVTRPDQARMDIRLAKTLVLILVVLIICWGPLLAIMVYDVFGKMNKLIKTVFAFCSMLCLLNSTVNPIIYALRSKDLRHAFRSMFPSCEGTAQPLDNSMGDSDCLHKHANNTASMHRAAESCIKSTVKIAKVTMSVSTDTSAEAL
Sequence of UniProt P25123 (whole entry, unmodified, looked up): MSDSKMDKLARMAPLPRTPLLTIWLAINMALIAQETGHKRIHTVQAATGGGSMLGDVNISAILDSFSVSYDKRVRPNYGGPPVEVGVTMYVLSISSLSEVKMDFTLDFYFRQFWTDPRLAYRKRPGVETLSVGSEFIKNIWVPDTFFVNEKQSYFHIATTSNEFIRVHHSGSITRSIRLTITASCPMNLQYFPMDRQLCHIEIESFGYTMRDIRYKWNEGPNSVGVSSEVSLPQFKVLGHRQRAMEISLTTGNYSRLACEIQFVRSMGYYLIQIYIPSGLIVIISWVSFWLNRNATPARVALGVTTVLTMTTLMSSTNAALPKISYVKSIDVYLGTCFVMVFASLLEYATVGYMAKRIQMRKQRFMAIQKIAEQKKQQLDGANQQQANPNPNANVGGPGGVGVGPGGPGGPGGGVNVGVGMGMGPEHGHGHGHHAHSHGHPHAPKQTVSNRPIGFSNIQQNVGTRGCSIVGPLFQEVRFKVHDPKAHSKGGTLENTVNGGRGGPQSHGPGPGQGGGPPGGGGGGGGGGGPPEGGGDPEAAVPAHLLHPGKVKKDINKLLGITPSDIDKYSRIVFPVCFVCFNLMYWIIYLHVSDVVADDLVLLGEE
Sequence of UniProt P07550 (whole entry, looked up): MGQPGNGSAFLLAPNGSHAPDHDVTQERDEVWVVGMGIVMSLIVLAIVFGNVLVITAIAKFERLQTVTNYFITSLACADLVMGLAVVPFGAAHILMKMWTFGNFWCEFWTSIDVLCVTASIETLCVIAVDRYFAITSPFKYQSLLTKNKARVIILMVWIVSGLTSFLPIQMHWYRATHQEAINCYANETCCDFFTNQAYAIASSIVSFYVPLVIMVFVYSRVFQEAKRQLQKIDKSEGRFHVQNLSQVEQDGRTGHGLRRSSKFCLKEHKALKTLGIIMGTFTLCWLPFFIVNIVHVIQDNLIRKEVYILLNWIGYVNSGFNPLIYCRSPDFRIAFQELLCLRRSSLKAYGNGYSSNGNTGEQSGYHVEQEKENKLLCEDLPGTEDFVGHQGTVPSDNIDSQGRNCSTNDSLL
Sequence of UniProt P34972 (whole entry, looked up): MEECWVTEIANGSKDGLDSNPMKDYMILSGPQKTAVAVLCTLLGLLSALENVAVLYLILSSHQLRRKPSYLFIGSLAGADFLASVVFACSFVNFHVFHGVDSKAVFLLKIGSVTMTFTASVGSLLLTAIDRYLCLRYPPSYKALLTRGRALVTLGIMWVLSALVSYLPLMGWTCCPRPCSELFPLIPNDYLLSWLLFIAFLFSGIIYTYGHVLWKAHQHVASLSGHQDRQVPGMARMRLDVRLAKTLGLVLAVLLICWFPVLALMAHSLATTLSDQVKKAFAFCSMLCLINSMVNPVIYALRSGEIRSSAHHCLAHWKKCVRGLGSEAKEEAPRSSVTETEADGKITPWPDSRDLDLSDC

For `CCOC(=O)C1C(OC(c2ccc(Cl)cc2)c2ccc(Cl)cc2)CC2CCC1N2C` (single isomer, unassigned), Ki read “inactive” (ADRB2 (Homo sapiens, UniProt P07550); binding, radioligand displacement; inactive if below 75% at 10000 nM, added: [3H]CGP-12177).
The kon of `CC[C@H](C)[C@H](NC(=O)[C@H](CCCCN)NC(=O)CNC(=O)[C@@H](NC(=O)[C@@H](NC(=O)[C@H](CC(N)=O)NC(=O)[C@H](CC(=O)O)NC(=O)[C@@H](N)CC(=O)O)C(C)C)[C@@H](C)CC)C(=O)N[C@@H](Cc1c[nH]c2ccccc12)C(=O)N[C@@H](CO)C(=O)N[C@@H](CCCCN)C(=O)N[C@@H](CC(C)C)C(=O)N[C@H](C(=O)N[C@H](C(=O)N[C@H](C(=O)N[C@H](C(=O)N[C@H](C(=O)N[C@@H](CCCCN)C(=O)N[C@H](C(=O)N[C@@H](Cc1ccccc1)C(=O)N[C@H](C(=O)N[C@@H](CCCCN)C(=O)O)[C@@H](C)O)[C@@H](C)CC)[C@@H](C)O)[C@@H](C)CC)C(C)C)[C@@H](C)O)[C@@H](C)CC` is reported as 11000 M^–1 s^–1 (lipid vesicle binding, stopped-flow FRET; POPC vesicles; pH 7.5).
The koff of `CC(C)C[C@H](NC(=O)CNC(=O)[C@H](CCC(=O)O)NC(=O)[C@H](CCCCN)NC(=O)[C@H](CC(C)C)NC(=O)[C@H](C)NC(=O)[C@H](C)NC(=O)CNC(=O)[C@H](C)NC(=O)[C@H](CCCCN)NC(=O)[C@H](CCC(=O)O)NC(=O)[C@H](CC(C)C)NC(=O)[C@H](CCCCN)NC(=O)[C@H](CCCCN)NC(=O)[C@H](CC(C)C)NC(=O)[C@H](CC(C)C)NC(=O)[C@H](CCCCN)NC(=O)[C@H](Cc1c[nH]c2ccccc12)NC(=O)[C@@H](N)CCCCN)C(=O)N[C@@H](CC(C)C)C(=O)N[C@@H](CCCCN)C(=O)N[C@@H](C)C(=O)NCC(=O)N1CCC[C@H]1C(=O)N[C@@H](C)C(=O)N[C@@H](CC(C)C)C(=O)N[C@@H](C)C(=O)N[C@@H](CC(C)C)C(=O)N[C@@H](CC(C)C)C(=O)NCC(=O)N[C@@H](C)C(=O)N[C@@H](C)C(=O)N[C@@H](C)C(=O)N[C@@H](C)C(=O)N[C@@H](CC(C)C)C(=O)N[C@@H](C)C(=O)N[C@@H](CCCCN)C(N)=O` is reported as 140 s⁻¹ (membrane binding, stopped-flow FRET; POPC vesicles; room temperature, extrapolated from POPC/POPG).
`CC[C@H](C)[C@H](N)C(=O)N[C@H](C(=O)N[C@@H](CO)C(=O)N[C@H](C(=O)N[C@H](C(=O)NCC(=O)N[C@@H](CC(=O)O)C(=O)N[C@@H](Cc1c[nH]c2ccccc12)C(=O)N[C@H](C(=O)N[C@@H](CCCCN)C(=O)N[C@@H](CC(C)C)C(=O)N[C@H](C(=O)N[C@H](C(=O)N[C@@H](CC(=O)O)C(=O)N[C@H](C(=O)N[C@H](C(=O)N[C@@H](CC(N)=O)C(=O)N[C@@H](CCCCN)C(=O)N[C@@H](Cc1ccccc1)C(=O)N[C@H](C(=O)N[C@@H](CCCCN)C(=O)N[C@@H](CCCCN)C(=O)O)[C@@H](C)O)C(C)C)[C@@H](C)O)[C@@H](C)CC)[C@@H](C)CC)C(C)C)[C@@H](C)CC)[C@@H](C)O)[C@@H](C)CC` gave a koff of 2.2 s^–1 (lipid vesicle dissociation; POPC vesicles; pH 7.5).
The koff of `CC[C@H](C)[C@H](NC(=O)CN)C(=O)N[C@@H](CC(C)C)C(=O)N[C@@H](CCCCN)C(=O)N[C@@H](Cc1ccccc1)C(=O)N[C@@H](CC(C)C)C(=O)N[C@@H](CCC(=O)O)C(=O)N[C@@H](CO)C(=O)N[C@@H](C)C(=O)N[C@@H](CCCCN)C(=O)N[C@@H](CCCCN)C(=O)N[C@@H](Cc1c[nH]c2ccccc12)C(=O)N[C@@H](CC(C)C)C(=O)N[C@@H](CCC(=O)O)C(=O)N[C@@H](C)C(=O)N[C@@H](Cc1ccccc1)C(=O)N[C@@H](CC(C)C)C(=O)N[C@@H](C)C(=O)N[C@@H](CCC(=O)O)C(=O)N[C@H](C(=O)N[C@@H](CCSC)C(=O)N[C@@H](CC(N)=O)C(=O)N[C@@H](CO)C(=O)O)[C@@H](C)CC` is reported as 13 s⁻¹ (membrane binding, stopped-flow FRET; POPC vesicles; pH 7.5, room temperature).
`COC(=O)c1ccc2c(C=C3C(=O)C4CCN3CC4)cn(Cc3ccccc3)c2c1`: “increase in cAMP” 218 ± 46.3% (CNR2 (Homo sapiens, UniProt P34972); forskolin-stimulated; CHO-hCB2; 10 µM; relative to: basal).
With `O=C(N=P12CN3CN(CN(C3)C1)C2)c1ccccn1.[Cl][Pd][Cl]` the affinity ratio was about 40 (Albumin (ALB, Homo sapiens, UniProt P02768); binding, isothermal titration calorimetry; relative to: K1 over K2).
Under “EI* complex half-life”, `C[C@@](O)(C(F)F)[C@H](NC(=O)c1ccc(C#CC#CC2CC2)cc1)C(=O)NO` is recorded as about 2 h (UDP-3-O-acyl-N-acetylglucosamine deacetylase (Escherichia coli K-12, UniProt P0A725); enzyme activity, inhibitor).
`CC[C@H](C)[C@H](N)C(=O)N[C@H](C(=O)N[C@@H](CCCCN)C(=O)N[C@H](C(=O)N[C@H](C(=O)NCC(=O)N[C@@H](CC(=O)O)C(=O)N[C@@H](CC(C)C)C(=O)N[C@H](C(=O)N[C@@H](CCCCN)C(=O)N[C@@H](Cc1c[nH]c2ccccc12)C(=O)N[C@H](C(=O)N[C@H](C(=O)N[C@@H](CC(=O)O)C(=O)N[C@H](C(=O)N[C@H](C(=O)N[C@@H](CC(N)=O)C(=O)N[C@@H](CO)C(=O)N[C@@H](Cc1ccccc1)C(=O)N[C@H](C(=O)N[C@@H](CCCCN)C(=O)N[C@@H](CCCCN)C(=O)O)[C@@H](C)O)C(C)C)[C@@H](C)O)[C@@H](C)CC)[C@@H](C)CC)C(C)C)[C@@H](C)CC)[C@@H](C)O)[C@@H](C)CC` has a kon of 14000 M^–1 s^–1 (lipid vesicle binding, stopped-flow FRET; POPC vesicles; pH 7.5).
`O=C1C(=Cc2cn(Cc3ccc(F)cc3)c3ccccc23)N2CCC1CC2` has an inhibition of 55.5 ± 4.4% (Cnr1 (Mus musculus, UniProt P47746); adenylyl cyclase activity; Neuro2A; 10 µM).
`CC(C)C[C@H](NC=O)C(=O)N[C@@H](C)C(=O)N[C@@H](C)C(=O)N[C@@H](CC(=O)O)C(=O)N[C@@H](CC(C)C)C(=O)N[C@@H](CC(C)C)C(=O)N[C@@H](C)C(=O)N[C@@H](C)C(=O)N[C@@H](CC(C)C)C(=O)NCC(=O)N[C@@H](CC(=O)O)C(=O)N[C@@H](CC(C)C)C(=O)N[C@@H](C)C(=O)N[C@@H](CCCCN)C(=O)N[C@@H](Cc1c[nH]c2ccccc12)C(=O)N[C@@H](CC(C)C)C(=O)N[C@@H](CC(C)C)C(=O)N[C@@H](CC(=O)O)C(=O)N[C@@H](C)C(=O)N[C@@H](CC(C)C)C(=O)N[C@@H](C)C(=O)N[C@@H](CCCCN)C(=O)N[C@@H](C)C(=O)N[C@@H](C)C(=O)N[C@@H](CCCCN)C(=O)N[C@@H](CCCCN)C(=O)O` (racemic) gave a koff of 0.11 s⁻¹ (membrane binding, stopped-flow FRET; POPC vesicles; pH 7.5, room temperature).
With `CC[C@H](C)[C@H](N)C(=O)N[C@H](C(=O)N[C@@H](CO)C(=O)N[C@H](C(=O)N[C@H](C(=O)NCC(=O)N[C@@H](CC(=O)O)C(=O)N[C@@H](CC(C)C)C(=O)N[C@H](C(=O)N[C@@H](CCCCN)C(=O)N[C@@H](Cc1c[nH]c2ccccc12)C(=O)N[C@H](C(=O)N[C@H](C(=O)N[C@@H](CC(=O)O)C(=O)N[C@H](C(=O)N[C@H](C(=O)N[C@@H](CC(N)=O)C(=O)N[C@@H](CCCCN)C(=O)N[C@@H](Cc1ccccc1)C(=O)N[C@H](C(=O)N[C@@H](CCCCN)C(=O)N[C@@H](CCCCN)C(=O)O)[C@@H](C)O)C(C)C)[C@@H](C)O)[C@@H](C)CC)[C@@H](C)CC)C(C)C)[C@@H](C)CC)[C@@H](C)O)[C@@H](C)CC` the kon was 7100 M^–1 s^–1 (lipid vesicle binding, stopped-flow FRET; POPC vesicles; pH 7.5).
Under “koff fold slower than k6”, `CCCCCCc1ccc(Oc2ccccc2Br)c(O)c1` is recorded as 5 fold (inhA (Mycobacterium tuberculosis, UniProt P9WGR1); inhibitor; relative to: k6 from global fit over koff).
With `C=C(C)C1C2OC(=O)C1C1(O)CC3OC34C(=O)OC2C14C` (stereo not drawn) the Hill coefficient was 1.32 ± 0.23 (Rdl (Drosophila melanogaster, UniProt P25123, A301V); GABA-induced current, antagonist; added: GABA at EC50).
Under “time to peak current”, `CC(C)C[C@H](NC(=O)[C@H](Cc1ccccc1)NC(=O)CNC(=O)CNC(=O)[C@@H](N)Cc1ccc(OC(C(=O)O)c2ccccc2[N+](=O)[O-])cc1)C(=O)O` (stereo partly drawn) is recorded as 1 to 2 s (K+ current, agonist, photo-uncaging; rat locus coeruleus neurons).
For `CC[C@H](C)[C@H](N)C(=O)N[C@H](C(=O)NCC(=O)N[C@H](C(=O)N[C@H](C(=O)N[C@@H](CC(=O)O)C(=O)N[C@@H](CO)C(=O)N[C@@H](CC(C)C)C(=O)N[C@H](C(=O)N[C@@H](CCCCN)C(=O)N[C@@H](Cc1c[nH]c2ccccc12)C(=O)N[C@H](C(=O)N[C@H](C(=O)N[C@@H](CC(=O)O)C(=O)N[C@H](C(=O)N[C@H](C(=O)N[C@@H](CC(N)=O)C(=O)N[C@@H](CCCCN)C(=O)N[C@@H](Cc1ccccc1)C(=O)N[C@H](C(=O)N[C@@H](CCCCN)C(=O)N[C@@H](CCCCN)C(=O)O)[C@@H](C)O)C(C)C)[C@@H](C)O)[C@@H](C)CC)[C@@H](C)CC)C(C)C)[C@@H](C)CC)[C@@H](C)O)[C@@H](C)CC`, the koff was 0.17 s^–1 (lipid vesicle dissociation; POPC vesicles; pH 7.5).
`CC(C)C[C@H](NC(=O)[C@H](Cc1ccccc1)NC(=O)CNC(=O)CNC(=O)[C@@H](N)Cc1ccc(O)cc1)C(=O)O` has a reversal potential of -110 ± 1.9 mV (K+ current, agonist, photo-uncaging; rat locus coeruleus neurons; large somatic currents).
`C[C@H](NC(=O)[C@@H]1CCCN1C(=O)[C@H](Cc1ccc(O)cc1)NC(=O)CNC(=O)[C@H](CO)NC(=O)[C@H](Cc1ccccc1)NC(=O)[C@@H](N)[C@@H](C)O)C(=O)N[C@@H](Cc1ccccc1)C(=O)O` has an Emax of 86% (agonist; Wistar rat hippocampus membranes; 0.6 µM, 1 h, 30 °C; relative to: baseline).

Excerpt of the above:
`O=C1C(=Cc2cn(Cc3ccc(F)cc3)c3ccccc23)N2CCC1CC2` has an inhibition of 55.5 ± 4.4% (Cnr1 (Mus musculus, UniProt P47746); adenylyl cyclase activity; Neuro2A; 10 µM).
`CC(C)C[C@H](NC=O)C(=O)N[C@@H](C)C(=O)N[C@@H](C)C(=O)N[C@@H](CC(=O)O)C(=O)N[C@@H](CC(C)C)C(=O)N[C@@H](CC(C)C)C(=O)N[C@@H](C)C(=O)N[C@@H](C)C(=O)N[C@@H](CC(C)C)C(=O)NCC(=O)N[C@@H](CC(=O)O)C(=O)N[C@@H](CC(C)C)C(=O)N[C@@H](C)C(=O)N[C@@H](CCCCN)C(=O)N[C@@H](Cc1c[nH]c2ccccc12)C(=O)N[C@@H](CC(C)C)C(=O)N[C@@H](CC(C)C)C(=O)N[C@@H](CC(=O)O)C(=O)N[C@@H](C)C(=O)N[C@@H](CC(C)C)C(=O)N[C@@H](C)C(=O)N[C@@H](CCCCN)C(=O)N[C@@H](C)C(=O)N[C@@H](C)C(=O)N[C@@H](CCCCN)C(=O)N[C@@H](CCCCN)C(=O)O` (racemic) gave a koff of 0.11 s⁻¹ (membrane binding, stopped-flow FRET; POPC vesicles; pH 7.5, room temperature).
